Results collected from several papers.
Numbered parts are unrelated; each lists some results of a single study.
Sequence of UniProt P43403 (whole entry, looked up): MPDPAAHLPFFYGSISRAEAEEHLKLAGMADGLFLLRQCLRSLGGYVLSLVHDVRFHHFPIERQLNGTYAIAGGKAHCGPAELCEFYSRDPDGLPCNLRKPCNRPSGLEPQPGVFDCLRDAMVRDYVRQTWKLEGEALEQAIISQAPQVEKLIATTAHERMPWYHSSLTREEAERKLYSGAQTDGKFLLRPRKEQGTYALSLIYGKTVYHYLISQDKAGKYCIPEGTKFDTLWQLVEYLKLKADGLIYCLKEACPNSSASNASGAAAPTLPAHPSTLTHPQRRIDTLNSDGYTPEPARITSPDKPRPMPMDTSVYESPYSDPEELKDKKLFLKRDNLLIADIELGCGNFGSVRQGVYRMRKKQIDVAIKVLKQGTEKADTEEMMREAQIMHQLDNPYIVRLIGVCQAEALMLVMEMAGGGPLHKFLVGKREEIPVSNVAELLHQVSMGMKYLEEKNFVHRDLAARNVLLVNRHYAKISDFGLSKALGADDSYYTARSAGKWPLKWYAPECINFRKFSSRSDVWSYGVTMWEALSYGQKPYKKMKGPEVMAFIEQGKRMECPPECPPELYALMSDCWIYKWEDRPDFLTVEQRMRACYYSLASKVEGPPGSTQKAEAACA

Study 1
Target: POU, POU domain (Salpingoeca helianthica)
Technique: Spec-seq
Molecule type: double-stranded DNA, one strand shown
Matrix: in vitro
Tested at: not given
Setting: whole probe, mean of replicates
Relative to: not given
Reading: lower = stronger binding
Endpoint: relative binding energy
Shared flanks, not repeated: GAGTCGTCTCGTCAGCAC … CCGTAGAGCACTCAGGTC
Target sequence (chain): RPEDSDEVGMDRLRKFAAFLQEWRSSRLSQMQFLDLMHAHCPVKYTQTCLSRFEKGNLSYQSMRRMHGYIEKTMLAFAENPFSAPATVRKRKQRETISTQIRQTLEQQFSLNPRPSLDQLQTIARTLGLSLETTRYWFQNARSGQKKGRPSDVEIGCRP
Strand = CAACTAAT; result = 0.359 ln ratio
Strand = ATGCTTGA; result = 1.45 ln ratio
Strand = CTGTTAAT; result = -0.457 ln ratio
Strand = ATGCAAGC; result = 1.36 ln ratio
Strand = ATGCGAAA; result = 1.3 ln ratio
Strand = ATTTAGAT; result = 0.625 ln ratio
Strand = ATGGCGAT; result = 1.45 ln ratio
Strand = GGTTTAAT; result = 0.016 ln ratio

Study 2
Target: PABPC1L2, full length, GST fusion (mouse, UniProt A0ABA7IW68)
Technique: RNAcompete
Molecule type: RNA
Matrix: in vitro
Tested at: 20 nM
Setting: 7-mer, probes averaged, single round
Relative to: mean of 7-mers
Reading: higher = stronger binding
Endpoint: 7-mer Z-score
Strand = AGAGUUA; result = -0.173
Strand = CGCUGCC; result = -0.309
Strand = CAUCCUU; result = -0.345
Strand = UAUAUCA; result = -0.0228
Strand = AACCUGC; result = -0.00833
Strand = AAGGACU; result = 0.269
Strand = UGUCCCU; result = -0.34
Strand = AAAGACU; result = 1.29

Study 3
Target: TAR DNA-binding protein 43, full length, His tag (TARDBP, Homo sapiens, UniProt Q13148, residues 1-414)
Technique: RNA Bind-n-Seq
Molecule type: RNA
Matrix: in vitro
Tested at: 20 nM
Setting: 6-mer, flanks averaged, single round
Added: 150 mM KCl
Relative to: input library
Reading: higher = stronger binding
Endpoint: 6-mer enrichment (R)
Strand = CCGGUG; result = 1.33
Strand = ACACGU; result = 0.663
Strand = CGUAAA; result = 0.636
Strand = CUAUUA; result = 0.58
Strand = CGAUGA; result = 0.79
Strand = AGGUAC; result = 0.814
Strand = GCGGUA; result = 1.42
Strand = CAGCUC; result = 0.621

Further values, each from its own experiment
SMILES = COc1ccc(S(=O)(=O)N(CCO)c2ccccc2CN(C)CC=Cc2ccc(Cl)cc2)cc1; target = Tyrosine-protein kinase ZAP-70 (ZAP70, Homo sapiens, UniProt P43403); test = enzyme activity, inhibitor; conditions = 0.5 µM; scale = relative to: control; endpoint = remaining activity; result = 84.7%

Excerpt of the above (study 2):
Strand = CGCUGCC; result = -0.309
Strand = AAAGACU; result = 1.29
